# Experimental data collected from several papers.
# A part holds a random share of what one study measured.

# Block 1
# Target: RNA binding protein fox-1 homolog 2, RRM domain, GST-SBP tag (RBFOX2, Homo sapiens, UniProt O43251-10, residues 100-194)
# Technique: RNA Bind-n-Seq
# Molecule type: RNA
# Sample: in vitro
# Concentration: 365 nM
# Notes: natural RNA segment, single round, ends assumed
# Relative to: no-protein control
# Reading: higher = stronger binding
# Shared flanks, not repeated: GGGAGUUCUACAGUCCGACGAUC … UGGAAUUCUCGGGUGCCAA
Sequence,RBNS enrichment (R)
AGCCAGGGAGCUGGUGACACUUGUGUGCUGUGGGGCAGCUGGGAUCCAGGUAAGACCGGAUUGAAGCUUUGAAAUUAGACUAACAAAGCUCCAGACAGCAAGAGCCCAGG,0.369
UUUUGUAACCUUUAGUGGGUUCCACGGUUGAGAUUUAGCACUGGAGCCAGGCAUGGUGGUAUACUCCAUUAAUCACUCAGGAGGCAGAGGCAGGUGGAUCUCUGUGAGUU,1.94
GGAAGGGGCCACGUGGAUGGGCAAAGCUUGUCAAAGAUGCCCCCUCCAGGAGAGAGCCAGGAUGCCCAGAUGAACUGACUGAAGGAAAAGCAAGAAACAGUUUCUUGCUU,0.459
UAAGGCUGGCGUGGCACGUUUGGGGACUCUGCCAGUCGGAGUUGCUGGGCACAUGCUGUGUACCACCGACUGCAGUCUGGCCCUGUUCUUAGUGGCAUCUGCCAAUGAGA,0.479
AUCCACCCAGCCCAUUCUCUCUCCUGUCCAACCUAACCCCUUUCCUGCGGGCUUUUCCCCGGUCCCUUGAGACCUCAGCCAUGAGGAGUUGCUGUUUGUUUGACAAAGAA,0.644
CUAGUAUAGAAGUGGCAUAUCCCACUAGCUUCUACUUUCCUGAUAUAUUUUUACAAAUAACUUUAUUUGCUUUACAUUAUUUCUAAAAGGAAAAAUCUGAGGAAACCCUU,0.51

# Block 2
# Target: PABPC1L2, full length, GST fusion (mouse, UniProt A0ABA7IW68)
# Technique: RNAcompete
# Molecule type: RNA
# Sample: in vitro
# Concentration: 20 nM
# Notes: 7-mer, probes averaged, single round
# Relative to: mean of 7-mers
# Reading: higher = stronger binding
# Target sequence (chain): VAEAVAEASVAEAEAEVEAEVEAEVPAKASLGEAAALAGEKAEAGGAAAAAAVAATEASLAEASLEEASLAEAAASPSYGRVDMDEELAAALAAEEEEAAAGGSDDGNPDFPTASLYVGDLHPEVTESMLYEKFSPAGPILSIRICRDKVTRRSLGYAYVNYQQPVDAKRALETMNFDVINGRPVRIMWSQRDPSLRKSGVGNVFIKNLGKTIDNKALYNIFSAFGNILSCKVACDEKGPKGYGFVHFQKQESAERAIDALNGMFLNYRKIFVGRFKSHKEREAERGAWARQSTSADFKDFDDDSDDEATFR
Sequence,7-mer Z-score
ACAUGAG,0.102
GUACUGC,-0.195
ACCCUAC,-0.182
UCCGUAG,-0.291
CACCGAA,0.0406
UCGACAG,-0.153

# Block 3
# Target: Sal-like protein 4, full length isoform A (SALL4, Homo sapiens, UniProt Q9UJQ4, residues 1-1053)
# UniProt Q9UJQ4, sequence (whole entry, looked up): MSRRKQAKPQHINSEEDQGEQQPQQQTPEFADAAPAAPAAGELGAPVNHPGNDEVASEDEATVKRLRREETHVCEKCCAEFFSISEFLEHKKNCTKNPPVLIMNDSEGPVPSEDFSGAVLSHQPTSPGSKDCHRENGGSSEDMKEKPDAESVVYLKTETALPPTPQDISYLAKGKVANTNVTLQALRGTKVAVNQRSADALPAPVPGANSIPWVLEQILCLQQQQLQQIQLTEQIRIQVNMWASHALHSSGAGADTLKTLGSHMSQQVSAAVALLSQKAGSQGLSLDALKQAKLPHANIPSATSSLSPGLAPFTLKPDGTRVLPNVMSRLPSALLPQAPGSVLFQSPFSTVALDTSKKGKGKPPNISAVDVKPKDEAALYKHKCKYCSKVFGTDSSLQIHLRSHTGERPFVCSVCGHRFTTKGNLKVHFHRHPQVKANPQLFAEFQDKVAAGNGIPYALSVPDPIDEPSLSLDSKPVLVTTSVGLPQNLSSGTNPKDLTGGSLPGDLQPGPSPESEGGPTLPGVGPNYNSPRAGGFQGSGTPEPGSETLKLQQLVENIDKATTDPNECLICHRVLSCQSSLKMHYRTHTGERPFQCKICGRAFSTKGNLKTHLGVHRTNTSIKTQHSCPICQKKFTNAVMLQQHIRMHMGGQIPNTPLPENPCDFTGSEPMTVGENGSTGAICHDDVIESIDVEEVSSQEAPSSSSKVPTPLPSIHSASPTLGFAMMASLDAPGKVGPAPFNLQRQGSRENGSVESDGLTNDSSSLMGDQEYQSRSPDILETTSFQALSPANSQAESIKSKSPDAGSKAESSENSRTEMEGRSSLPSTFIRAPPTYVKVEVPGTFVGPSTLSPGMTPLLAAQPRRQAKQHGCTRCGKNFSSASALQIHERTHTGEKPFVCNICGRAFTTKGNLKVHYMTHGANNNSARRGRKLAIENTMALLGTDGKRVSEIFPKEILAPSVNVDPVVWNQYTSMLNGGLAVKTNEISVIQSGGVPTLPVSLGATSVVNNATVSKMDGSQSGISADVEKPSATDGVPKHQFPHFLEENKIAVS
# Technique: universal PBM
# Molecule type: double-stranded DNA, one strand shown
# Sample: in vitro
# Concentration: 600 nM
# Notes: 8-mer, flanks averaged, mean of replicates
# Reading: higher = stronger binding
Sequence,E-score
ACCGGCTA,-0.151
CATCCCTC,-0.191
TACGATGA,0.164
AAATGAGT,0.241
GGTCCAAA,-0.0966
CGCCATCC,-0.193
CCGGTTTA,-0.158
CCATAGGA,0.0386
AAGTTAGT,0.128
ATACAGGC,0.103
ATAGAAAT,0.355

# Mixed results
Substance,target,assay,test system,setting,scale,quantity,value
"PhoQ, residues 284 288 289 292 302 303 SSTMSV","PhoP, residues 12 14 15 18 19 AYFRS (Escherichia coli, UniProt P23836)","Sort-seq, item: YFP reporter",E. coli,"PhoQ-PhoP variant library, added: 10 µM Mg2+","relative to: high Mg2+ state, higher = stronger signaling",fold induction,0.719

# For quick reference, copied from above (block 3):
Sequence,E-score
TACGATGA,0.164
AAATGAGT,0.241
